Experimental data collected from several papers.

O=C(COc1ccc(Cl)cc1)NC12CC(c3nnc([C@H]4C[C@@H](OC(F)(F)F)C4)o3)(C1)C2  tmax (healthy human both sexes, plasma; oral, 145 mg once daily, day 1, median fasted): 23.9 h
CNC(=O)n1ccc2cc(Oc3ccnc(NC(=O)c4ccc(C5CCN(CCO)CC5)cc4)c3)c(OCCOC)cc21  tmax (healthy human, plasma; oral, 35 mg, median, with: rabeprazole 20 mg): 6 h
O=C(Nc1cnccc1Cl)N1CCN(Cc2ccc3c(c2)OC(F)(F)O3)CC1  tmax (human healthy young men, plasma; oral, 25 mg once daily, day 10, multiple dose median): 1.25 h
N#Cc1ccc2c(c1)[C@H]1CCCN(C(=O)c3ccc4[nH]cnc4c3)[C@H]1C2  tmax (human, plasma; oral, 240 mg once daily, after first dose, median): 1 h
Cc1ccc([C@@H]2O[C@H](CO)[C@@H](O)[C@H](O)[C@H]2O)cc1Cc1ccc(-c2ccc(F)cc2)s1  tmax (human, maintenance hemodialysis patients; oral, 300 mg once daily, steady state, mean): 2.7 h
C[C@H](O)c1cc(C(=O)N[C@@H](C)Cn2ccc(-c3ccc(C#N)c(Cl)c3)n2)n[nH]1  tmax (healthy male human, plasma; intravenous infusion, 100 µg 14C-labelled, 15 min infusion, microtracer, median): 0.25 h
COc1cc(N2CCC(N3CCN(C)CC3)CC2)ccc1Nc1ncnc(Nc2ccccc2S(=O)(=O)C(C)C)n1  tmax (human, plasma; oral, 325 mg, day 1): 4.52 h
Cc1cc(Nc2ccc(S(F)(F)(F)(F)F)cc2)n2nc(C(C)(F)F)nc2n1  tmax (LC-MS/MS; human vivax malaria patients, plasma; oral, 600 mg, median): 6 h

For quick reference, copied from above:
O=C(Nc1cnccc1Cl)N1CCN(Cc2ccc3c(c2)OC(F)(F)O3)CC1  tmax (human healthy young men, plasma; oral, 25 mg once daily, day 10, multiple dose median): 1.25 h
